Measured values pooled from the literature.
Parts stem from different laboratories: compare values within a part only.

Set 1
Target: RING finger protein unkempt homolog, zinc fingers 1-6, GST-SBP tag (UNK, Homo sapiens, UniProt Q9C0B0, residues 30-357)
Method: RNA Bind-n-Seq
Form: RNA
Sample: in vitro
Tested at: not given
Notes: RNA with constant flanks, ends assumed
Baseline: input RNA pool
Direction: higher = stronger binding
All sequences stand within: GGGAGUUCUACAGUCCGACGAUC … CAACAGAGGAUUGAGCAUCA
Residues (chain): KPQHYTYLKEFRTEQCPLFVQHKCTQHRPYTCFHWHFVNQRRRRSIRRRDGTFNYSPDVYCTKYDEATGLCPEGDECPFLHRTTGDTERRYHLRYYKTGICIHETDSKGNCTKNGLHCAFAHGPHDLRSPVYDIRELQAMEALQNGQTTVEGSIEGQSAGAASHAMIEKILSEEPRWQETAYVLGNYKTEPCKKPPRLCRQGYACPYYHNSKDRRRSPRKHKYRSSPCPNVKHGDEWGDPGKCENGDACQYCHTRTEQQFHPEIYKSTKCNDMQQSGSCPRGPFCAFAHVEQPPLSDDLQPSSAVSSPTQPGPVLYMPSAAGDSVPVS
Strand | bound/input enrichment
UCUGCAAUAGUUGGGUUUAUCUACGGGUACGUGGCUGAACAGUUUGGGUGGACUGUCUACACCGUUAUGGCCGGAUUUGCUUUCUCCUGUUUGCUGACACUUCCUCCAUGGCCUAUCUAC | 0.199 ratio
GGUGCUACACGAAUCCCUGCGGUAAAAGAGAAGAUCAGCAAAUUUUUCGGUAAAGAACUCCGUACAACAUUAAAUGCUGAUGAAGCUGUCACUCGAGGCUGUGCAUUGCAGUGUGCCAUC | 0.594 ratio
GUCAGCUGGGGUACAAAGGCCCAGCCUAUAGACUCCAUAUUAGCAGACUGGAAUGAAGACACCGAAGCAUUUGAAAUGAUGGAGAAGGAUGAACUAUGACUCUCUGGAAAGACUCUGGUG | 0.739 ratio
GACACAAAAAACAAGGAUGGCGUGCUGGUGGAUGAAUUUGGACUGCCGCAGAUUCCCGCUUCGCCGACUUACAACAUUCCAGCACGUGAUGUGAAACAACAAGAGAAGUAUUCUGGGACU | 0.133 ratio
GCUUCCAAGAAGGUUUUGGAUACUAGAAGUAUUAAUCUAUGGCUUUUCUCCCAGUAAAACCACCGGCCUGAAGUUCACAUUGGGUCUUUAAAUCUUUUAGAUAUAUACUGGUCAUUUCAG | 1.12 ratio
UAUGUGGAGACAGAACUGAUAUUCGCACUGGCUAAAACAAACCGCCUUGCAGAGUCCGAAGAAUUUAUCAAUGGACCAAAUAAUGCUCAUAUCCAACAAGUUGGUGACCGUUGUUAUGAU | 0.428 ratio
GAAUUCCUAACUUGGUGUCAGUUUCUAAGGCCUUUAGUGUCUUGGAUAUUCUACUGUGUGUUCCGAACUGUUAAGUGUCACCUUAUUCUGGGAUUAUUGUCCUAGAAAUAUUCUGUUCUU | 0.0953 ratio
ACUUUUCCAUGCAGAUUUGUGCACAUGUGAGAGGGUGUCCAGUUUGUCUAGUGAUUGUUAUUCCGAGAGUUGGACCACUAUUGUGUGUUGCUAAUCAUUGACUGUAGUCCCAAAAAAGCC | 0.172 ratio
UGAAGUGGUUUUUGUGGGUGUGAAACAAAUGGUGAGAAUUUGAAUUGGUCCCUCCUAUUACCGUAUUGAAAUUAAGUCUACUUAAUUUAUCAAGUCAUGUUCAUGCCCUGAUUUUAUAUA | 0.453 ratio
UGCGCCUUUUCUUCCUCUCUUUUUUUUCCCCCUUUCUUUCCCACCCCACCCCCUCCCAAUAACCGAUUUACUUUACAAUCAUCCACACUGUGGUCUGUGGAUCUUUAAUAUAUAUAUAUA | 1.32 ratio
AAGAUAACUUCAAGGCAGGAAAAAAGGGUAUUUAAUGCUCUGUCAAGCACAUCAGCAAUCACCGAUUACCUUACAGACCAUUAUGGCAUUUGACUAGACUUCCCAAAUAAUUUUAAUAUA | 0.57 ratio

Set 2
Target: Prothrombin, mature alpha-thrombin (F2, Homo sapiens, UniProt P00734)
Method: aptamer microarray, sandwich
Form: DNA with 2'F-ANA
Sample: in vitro
Tested at: 200 nM
Notes: whole 15-mer aptamer, many near background
Added: Cy3 exosite-II aptamer, 400 nM
Direction: higher = stronger binding
Strand: GGTTGGTGTGGTTGG
Modification | mean fluorescence intensity [a.u.]
2'F-ANA at 1 2 4 5 6 9 10 11 14 | 48.2
2'F-ANA at 1 7 8 12 14 | 88.1
2'F-ANA at 2 4 6 8 10 11 12 15 | 91.7
2'F-ANA at 1 2 4 5 7 9 11 13 | 52.5
2'F-ANA at 1 2 4 7 8 9 10 12 14 15 | 52.3
2'F-ANA at 1 5 6 9 11 12 15 | 86.1
2'F-ANA at 2 5 6 11 12 15 | 109
2'F-ANA at 2 3 4 6 9 13 14 | 199
2'F-ANA at 3 5 6 8 9 14 15 | 53
2'F-ANA at 1 3 6 7 9 13 | 164
2'F-ANA at 1 2 3 4 6 9 12 14 15 | 84.4
2'F-ANA at 1 3 6 7 9 10 11 12 15 | 132
2'F-ANA at 2 3 4 8 9 12 13 | 644
2'F-ANA at 2 3 4 5 7 8 13 | 94.2
2'F-ANA at 1 6 9 10 13 | 63.4
2'F-ANA at 1 2 3 5 9 10 11 13 14 15 | 49
2'F-ANA at 4 6 7 8 11 14 15 | 101
2'F-ANA at 2 4 5 8 15 | 72.1
2'F-ANA at 2 4 5 6 9 10 11 12 14 15 | 48.1
2'F-ANA at 3 4 6 9 11 13 15 | 375
2'F-ANA at 3 6 8 12 14 15 | 526
2'F-ANA at 3 6 9 10 11 | 412

Set 3
Target: Interferon regulatory factor 5, full length, phosphomimetic (IRF5, Homo sapiens, UniProt Q13568-2, residues 1-514, S451D/S453D/S456D/S462D)
Method: protein-binding microarray
Form: double-stranded DNA, one strand shown
Sample: in vitro
Tested at: 940 nM top
Notes: 60-bp whole probe
Added: salmon DNA 0.4 mg/ml
Baseline: random background probes
Direction: higher = stronger binding
All sequences stand within: GCCTAGCAC … GTCTTGATTCGCTTGACGCTGCTG
Strand | fitted relative affinity
TTAGATATGGGGTATCGATTAGTGCTA | 2.66 z-score
TCAGACTTTGGTTTGTAACTGTGCTAG | 0.00506 z-score
AGGTTCTACTCCGTTAGTTGGTGCTAG | 0.174 z-score
GTGCCTTTATATACCTGAATGTGCTAG | 0.427 z-score
GACGGACTGGGGTTTTGGGACGTGCTA | 0.147 z-score
TCATGTGTCAACTTTCTCACTGTGCTA | 0.86 z-score
GTCGAACTGGGGTTTCGAGACGTGCTA | 3.26 z-score
GACGAATTCAGACTGGAGACGTGCTAG | -0.374 z-score
GTTCTTTTCTGTTGTCTGTGTGTGCTA | 1.88 z-score
GACGATATCGGACTGGAGACGTGCTAG | -0.0918 z-score
TCATTTATGCTTTCTTTAACTGTGCTA | 1.43 z-score
GACGGTTCCGGTTTCAGGACGTGCTAG | 4.15 z-score
GACGAATTGGGGTTTCGAGACGTGCTA | 2.11 z-score
CTGGCTATTTTATATGCTATGGTGCTA | -0.0863 z-score
GACGGTCTCCTTTTCCTAACGTGCTAG | 0.544 z-score
GAGGGTTTCCTTTTCCTGACGTGCTAG | 1.48 z-score
GACGATATCGGGTATCGACACGTGCTA | 1.37 z-score
TTAGAACTGAGACTGGATTTGTGCTAG | 0.126 z-score
CTAGGTATCGGGTTTCGGTTAGTGCTA | 7.8 z-score
TTAGGTTTCGGGTTGCGGTTAGTGCTA | 10.9 z-score
TTAGGTCTCGGTCTCAGTTAGTGCTAG | 4.72 z-score
TCACTTCCATTTTCTGAAACTGTGCTA | 1.75 z-score
GAAAATCAACCAGGTGGTGTGTGCTAG | -0.491 z-score
TCAACTCTTCTTTTTTTACTGTGCTAG | 1.11 z-score
CCAGGGACAAAGCGGTGCGAGTGCTAG | -0.749 z-score

Set 4
Target: RNA binding protein fox-1 homolog 2, RRM domain, GST-SBP tag (RBFOX2, Homo sapiens, UniProt O43251-10, residues 100-194)
Method: RNA Bind-n-Seq
Form: RNA
Sample: in vitro
Tested at: 365 nM
Notes: natural RNA segment, single round, ends assumed
Baseline: no-protein control
Direction: higher = stronger binding
All sequences stand within: GGGAGUUCUACAGUCCGACGAUC … UGGAAUUCUCGGGUGCCAA
Target sequence (chain): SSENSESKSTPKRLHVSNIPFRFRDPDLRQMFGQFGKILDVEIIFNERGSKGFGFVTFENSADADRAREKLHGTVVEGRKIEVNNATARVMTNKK
Strand | RBNS enrichment (R)
UUCAAGGGACUCAGUAAGAGAAACGGAAUGUCCCCAAGGGUCAGUGGGCCACACUCUGGCUUUGUGGCUGCUGACAGGGCUUAGCUACACGAACAGCCUGAGAAGUCACU | 0.511
AUCACCCUGAGCCCCAUUUGCUUCCCAGCCCUGGAGUUUUUACCCGGCUUUGCCUGCCACCUCUGCCCAGGACACUCUUCCCUCUCGGGAUGUGUGAUGAACUCCCAGGA | 0.732
ACUGCUUCACCCUUCACAGAUUUAAUACAAUGUAUAAGCCUUACUUUCAUAACAUAUUCUACAAGUUUCCUUAAGACUGUUGUUAUAGUCUGGCUGAACCCAUUUCCACC | 0.351
GUUAUCUCCACUAACAUAUCCAAGAAUCUUUGUAGGACAAUUUCUCCACCUGCAAGGUCUUUCAGGUAGAACUCUUCUUUUAAGGCAAUUAGCCCAUUGCCAAAAGGUUU | 0.433
UAUUUAGGGACCAAAGGACCAAACUUUUUAUUGCAGAUGUGUAGCUCUGUCAAUUAGAGGUGGAAUGGAGACCAACCUCCUUCCUGCCUCCUGGCUGUUCUUGAAACAGC | 0.374
GGUGGGUCUCCACUGCGGGGCCAGGGCCACGCUCACCCCUCUCGCGGCCCCUCCUCUGCUUCCCCCUGAACCCACCCCCCACGGAAACCAGCCCUGCGGGCUAAGCAGGU | 0.395
UUUUAGUGACAUUUUAAAAGCAGUCAGAUUCUAUAAAUGGCAAGUAAGCCUGAAGUGAGGAUACUGCAAUUUUCGGAGAAAAGAACAGCAGCUCUUUAAGUGUUUGCAUU | 0.44
GGCAUUGGUGCCUCCCUGGCAAGUCCUUAACGUACAGUACCUGUAGCUGUGAGUGUGGCCUGCUGCCUGCUUGUGAUGAGUGAUACCGUCUUACUGUUUCUGUUUCACAU | 0.567
UGGUCUGUGUCACCGUAUCUCAGGAAGUCCAGCCACUUGACUGGCACACACCCCUCCGGACAUCCAGCGUGACGGAGCCCACACUGCCACCUUGUGGCCGCCUGAGACCC | 0.263
UGGGAAUGUGUGAUGCCUUUUCAGGCAAUAGGAAAGUGCAUGAGGAGAGUUUUGAAUGUGCAUAUGCUGACGCCUGAGAACAGACCCAGGUACCCGUGGCUGAGCUGAGC | 16.9
AUCAAAUGAAACAUGAAAAAAACAGUGACUUUUAAGGUGAAAAGAGUUUCAAGCAUUCCAAAUAAAUUAUCAAUGUUUCAUAACUUUUUAUUAUAAACCCACCUCCUAAU | 1.28
ACCCACCUUUGGGUGAUGGGUGCCUUAGGUCCCCAGCAGCUGUACAGAAGGGGCUCUUCUCUCCACAGAGCUGGGGUGCAGCCCCAACAUGUGAUUUUGAAUGAGUGUAA | 0.536

Repeated from above (set 2):
Modification | mean fluorescence intensity [a.u.]
2'F-ANA at 1 3 6 7 9 13 | 164
2'F-ANA at 2 3 4 6 9 13 14 | 199
2'F-ANA at 3 4 6 9 11 13 15 | 375
2'F-ANA at 3 5 6 8 9 14 15 | 53
2'F-ANA at 2 4 5 6 9 10 11 12 14 15 | 48.1
2'F-ANA at 2 4 6 8 10 11 12 15 | 91.7
2'F-ANA at 1 2 4 7 8 9 10 12 14 15 | 52.3
